# Measured values pooled from the literature.
# Each numbered part is a random draw from the data of one study; scales do not carry over between parts.

# Block 1 — method: aptamer microarray, sandwich; form: DNA with 2'F-ANA; matrix: in vitro; tested at: 200 nM; with: Cy3 exosite-II aptamer, 400 nM; reading: higher = stronger binding; strand: GGTTGGTGTGGTTGG
# Target: Prothrombin, mature alpha-thrombin (F2, Homo sapiens, UniProt P00734)
# Setting: whole 15-mer aptamer, many near background
Modification,mean fluorescence intensity
2'F-ANA at 2 3 4 5 6 7 8 9 10 15,52.1 a.u.
2'F-ANA at 3 5 6 9 11 12,183 a.u.
2'F-ANA at 2 3 4 6 7 9 10 11 12,246 a.u.
2'F-ANA at 1 2 3 4 8 9 10 11 12 14 15,52.1 a.u.
2'F-ANA at 2 7 8 9 10 11,128 a.u.
2'F-ANA at 1 7 8 10 13,57 a.u.
2'F-ANA at 1 4 5 7 8 9 11 12 13,65.5 a.u.
2'F-ANA at 3 5 9 11 14 15,54.5 a.u.

# Block 2 — method: universal PBM; form: double-stranded DNA, one strand shown; matrix: in vitro; tested at: not given; reading: higher = stronger binding
# Target: Sal-like protein 4, full length isoform B (SALL4, Homo sapiens, UniProt Q9UJQ4-2, residues 1-616)
# Setting: 8-mer, flanks averaged, mean of replicates
Strand,E-score
AACATCAT,0.268
AATTTGTG,0.173
TACGGAAA,0.125
CACCGCTA,-0.0621
ATACGCGG,-0.064
GGCAAGCA,-0.0491
ATGAGCCG,-0.0893
CGAGGTGA,-0.0653

# Block 3 — method: RNA Bind-n-Seq; form: RNA; matrix: in vitro; tested at: 15 pmol; setting: 4-mer, random 30-nt RNA, single round; with: 3 µM RocA, 2 mM AMP-PNP; baseline: mean of 4-mers; reading: higher = stronger binding
# Target: Eukaryotic initiation factor 4A-I (EIF4A1, Homo sapiens, UniProt P60842, residues 1-406, full length assumed)
# Chain of UniProt P60842 (whole entry, looked up): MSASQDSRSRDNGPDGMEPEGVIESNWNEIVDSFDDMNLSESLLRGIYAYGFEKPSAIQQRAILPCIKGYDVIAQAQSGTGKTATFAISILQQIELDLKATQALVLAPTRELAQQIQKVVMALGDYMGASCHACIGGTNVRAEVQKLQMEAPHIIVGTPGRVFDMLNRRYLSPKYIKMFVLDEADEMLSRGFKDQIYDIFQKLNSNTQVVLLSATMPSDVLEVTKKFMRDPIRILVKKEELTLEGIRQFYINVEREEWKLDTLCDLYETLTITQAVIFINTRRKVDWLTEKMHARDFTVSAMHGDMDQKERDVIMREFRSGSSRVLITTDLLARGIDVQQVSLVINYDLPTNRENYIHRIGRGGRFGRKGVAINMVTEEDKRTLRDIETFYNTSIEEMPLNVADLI
Strand,4-mer enrichment Z-score
GGAA,1.74
UAGC,-0.45
GAGA,2.34
UUUU,0.479
UAGG,0.886
ACCC,-0.998
CCGG,-0.179
UCCC,-1.18

# Other studies, line by line
SMILES,target,read-out,method,tested at,quantity,value
C[C@@H](c1cccc(C#N)c1)n1cc(Cl)cc(C(N)=O)c1=N,"Receptor tyrosine-protein kinase erbB-3 (ERBB3, Homo sapiens, UniProt P21860)",cell-free assay,competition with immobilised ligand,1 µM,remaining binding,91%

# Excerpt of the above (block 3):
Strand,4-mer enrichment Z-score
UUUU,0.479
UAGG,0.886
UCCC,-1.18
